Assay results collected from several papers.
Every numbered part comes from another study and shows a few of its results, in no order. Positions count from the first letter of the parent shown.
Sequence of UniProt Q9FGV1 (whole entry, looked up): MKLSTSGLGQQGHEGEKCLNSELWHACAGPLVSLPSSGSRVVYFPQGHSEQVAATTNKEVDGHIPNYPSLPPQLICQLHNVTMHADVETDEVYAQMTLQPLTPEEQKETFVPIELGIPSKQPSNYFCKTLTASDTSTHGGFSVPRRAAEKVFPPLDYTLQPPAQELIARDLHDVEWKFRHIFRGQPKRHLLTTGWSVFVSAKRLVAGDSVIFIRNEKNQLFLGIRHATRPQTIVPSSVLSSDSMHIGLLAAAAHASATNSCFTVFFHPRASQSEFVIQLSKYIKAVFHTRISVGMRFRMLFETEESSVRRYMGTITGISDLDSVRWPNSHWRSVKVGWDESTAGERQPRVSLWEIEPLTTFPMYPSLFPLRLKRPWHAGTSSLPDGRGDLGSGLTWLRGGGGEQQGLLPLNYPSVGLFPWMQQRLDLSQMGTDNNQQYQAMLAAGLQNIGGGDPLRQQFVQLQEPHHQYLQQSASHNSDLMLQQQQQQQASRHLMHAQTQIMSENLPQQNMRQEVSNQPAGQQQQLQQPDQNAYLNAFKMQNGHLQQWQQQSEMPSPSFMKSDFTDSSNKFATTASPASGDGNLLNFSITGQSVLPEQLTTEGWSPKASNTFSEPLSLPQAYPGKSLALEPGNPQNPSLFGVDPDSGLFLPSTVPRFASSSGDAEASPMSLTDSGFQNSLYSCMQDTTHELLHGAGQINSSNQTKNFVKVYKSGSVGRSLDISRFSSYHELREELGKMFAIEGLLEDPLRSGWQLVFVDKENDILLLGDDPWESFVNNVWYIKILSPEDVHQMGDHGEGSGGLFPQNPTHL
Sequence of UniProt Q9ZSY8 (whole entry, looked up): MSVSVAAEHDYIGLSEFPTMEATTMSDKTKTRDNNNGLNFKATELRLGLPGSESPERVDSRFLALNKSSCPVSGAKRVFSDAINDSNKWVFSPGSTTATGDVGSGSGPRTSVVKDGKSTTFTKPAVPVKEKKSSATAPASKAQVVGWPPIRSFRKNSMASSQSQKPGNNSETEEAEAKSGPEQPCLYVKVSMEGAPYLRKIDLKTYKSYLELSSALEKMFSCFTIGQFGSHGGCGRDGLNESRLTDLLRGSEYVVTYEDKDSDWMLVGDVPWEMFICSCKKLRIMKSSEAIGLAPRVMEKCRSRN
Sequence of UniProt O24408 (whole entry, looked up): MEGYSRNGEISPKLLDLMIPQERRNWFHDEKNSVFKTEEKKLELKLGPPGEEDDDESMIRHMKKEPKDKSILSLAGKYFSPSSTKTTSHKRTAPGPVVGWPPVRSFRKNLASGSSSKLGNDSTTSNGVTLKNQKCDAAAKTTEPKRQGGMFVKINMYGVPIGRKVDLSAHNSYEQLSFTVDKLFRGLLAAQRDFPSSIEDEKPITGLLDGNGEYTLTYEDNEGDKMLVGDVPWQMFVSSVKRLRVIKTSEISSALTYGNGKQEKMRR
Sequence of UniProt Q8LAL2 (whole entry, looked up): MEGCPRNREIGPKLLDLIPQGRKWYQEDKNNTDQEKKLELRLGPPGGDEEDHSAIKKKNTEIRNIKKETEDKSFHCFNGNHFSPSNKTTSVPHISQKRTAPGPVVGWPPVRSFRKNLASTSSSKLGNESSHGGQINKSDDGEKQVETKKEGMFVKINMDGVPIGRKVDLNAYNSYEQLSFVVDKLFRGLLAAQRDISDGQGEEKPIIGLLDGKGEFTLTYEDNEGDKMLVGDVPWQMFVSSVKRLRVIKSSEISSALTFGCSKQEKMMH
Sequence of UniProt Q9LQE8 (whole entry, looked up): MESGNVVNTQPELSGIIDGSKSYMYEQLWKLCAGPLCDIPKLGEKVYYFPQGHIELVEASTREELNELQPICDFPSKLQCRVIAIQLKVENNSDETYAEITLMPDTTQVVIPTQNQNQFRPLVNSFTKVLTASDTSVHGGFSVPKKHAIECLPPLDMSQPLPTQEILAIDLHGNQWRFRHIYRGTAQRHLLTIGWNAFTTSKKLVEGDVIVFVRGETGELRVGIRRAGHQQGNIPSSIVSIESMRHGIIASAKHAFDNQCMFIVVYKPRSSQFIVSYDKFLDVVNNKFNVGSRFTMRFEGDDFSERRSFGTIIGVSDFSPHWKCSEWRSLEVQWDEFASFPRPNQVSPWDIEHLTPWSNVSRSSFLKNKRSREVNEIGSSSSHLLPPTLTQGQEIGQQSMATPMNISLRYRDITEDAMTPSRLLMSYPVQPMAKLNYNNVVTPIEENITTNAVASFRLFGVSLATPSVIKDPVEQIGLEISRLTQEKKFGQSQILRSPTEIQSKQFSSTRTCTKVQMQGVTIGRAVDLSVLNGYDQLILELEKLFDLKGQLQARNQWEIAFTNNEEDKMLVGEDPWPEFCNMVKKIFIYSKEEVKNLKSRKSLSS
Sequence of UniProt Q94JM3 (whole entry, looked up): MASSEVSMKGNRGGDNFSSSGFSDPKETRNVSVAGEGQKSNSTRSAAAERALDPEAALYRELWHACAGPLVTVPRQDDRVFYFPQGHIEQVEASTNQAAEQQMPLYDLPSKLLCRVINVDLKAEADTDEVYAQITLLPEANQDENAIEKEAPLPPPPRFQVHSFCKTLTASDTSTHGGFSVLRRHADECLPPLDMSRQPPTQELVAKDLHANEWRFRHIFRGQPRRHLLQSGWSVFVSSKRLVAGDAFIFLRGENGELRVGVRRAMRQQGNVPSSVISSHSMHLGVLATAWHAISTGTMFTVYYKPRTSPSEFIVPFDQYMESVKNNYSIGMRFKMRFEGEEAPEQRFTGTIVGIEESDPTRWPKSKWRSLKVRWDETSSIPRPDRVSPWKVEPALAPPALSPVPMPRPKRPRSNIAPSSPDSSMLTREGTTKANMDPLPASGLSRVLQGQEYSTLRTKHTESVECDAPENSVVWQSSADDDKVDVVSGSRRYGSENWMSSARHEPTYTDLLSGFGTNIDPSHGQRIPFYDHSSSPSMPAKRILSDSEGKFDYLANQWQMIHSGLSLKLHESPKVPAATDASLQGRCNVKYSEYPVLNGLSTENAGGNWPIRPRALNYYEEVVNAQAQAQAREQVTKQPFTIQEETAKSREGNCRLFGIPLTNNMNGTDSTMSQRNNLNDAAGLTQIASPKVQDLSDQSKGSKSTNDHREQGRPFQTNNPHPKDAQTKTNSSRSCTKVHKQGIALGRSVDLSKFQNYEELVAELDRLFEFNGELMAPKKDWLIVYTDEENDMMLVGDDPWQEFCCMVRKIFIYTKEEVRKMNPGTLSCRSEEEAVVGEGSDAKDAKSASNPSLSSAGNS
Sequence of UniProt P93024 (whole entry, looked up): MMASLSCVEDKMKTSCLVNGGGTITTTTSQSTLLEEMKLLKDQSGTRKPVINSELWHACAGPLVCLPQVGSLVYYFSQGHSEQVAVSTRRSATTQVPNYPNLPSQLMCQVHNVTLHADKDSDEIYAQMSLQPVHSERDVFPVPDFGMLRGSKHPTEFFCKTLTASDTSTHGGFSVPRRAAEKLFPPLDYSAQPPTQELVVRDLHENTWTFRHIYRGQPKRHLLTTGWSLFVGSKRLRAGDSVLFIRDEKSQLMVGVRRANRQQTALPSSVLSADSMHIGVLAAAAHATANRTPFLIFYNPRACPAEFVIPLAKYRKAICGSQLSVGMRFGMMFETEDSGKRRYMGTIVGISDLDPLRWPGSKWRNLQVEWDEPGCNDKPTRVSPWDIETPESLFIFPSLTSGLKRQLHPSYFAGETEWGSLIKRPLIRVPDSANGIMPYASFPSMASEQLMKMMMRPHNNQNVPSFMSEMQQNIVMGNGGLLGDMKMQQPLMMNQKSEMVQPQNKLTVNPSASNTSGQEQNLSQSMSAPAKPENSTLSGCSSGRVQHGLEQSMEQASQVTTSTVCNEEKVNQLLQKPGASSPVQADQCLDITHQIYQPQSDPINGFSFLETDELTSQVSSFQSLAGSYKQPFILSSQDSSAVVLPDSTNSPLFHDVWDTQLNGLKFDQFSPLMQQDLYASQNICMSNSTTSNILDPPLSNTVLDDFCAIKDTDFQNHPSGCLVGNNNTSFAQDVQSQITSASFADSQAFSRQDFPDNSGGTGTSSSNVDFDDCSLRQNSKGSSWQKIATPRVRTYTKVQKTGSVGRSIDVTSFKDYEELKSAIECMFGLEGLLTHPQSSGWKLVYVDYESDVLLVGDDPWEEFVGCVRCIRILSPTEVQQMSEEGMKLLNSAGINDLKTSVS

Block 1 — Molecule: B1 (IAA13); method: two-hybrid; direction: higher = firmer interaction; endpoint: positive tests
B1: IAA13 (Arabidopsis thaliana, UniProt Q38831); chain MITELEMGKGESELELGLGLSLGGGTAAKIGKSGGGGAWGERGRLLTAKDFPSVGSKRAADSASHAGSSPPRSSSQVVGWPPIGSHRMNSLVNNQATKSAREEEEAGKKKVKDDEPKDVTKKVNGKVQVGFIKVNMDGVAIGRKVDLNAHSSYENLAQTLEDMFFRTNPGTVGLTSQFTKPLRLLDGSSEFVLTYEDKEGDWMLVGDVPWRMFINSVKRLRVMKTSEANGLAARNQEPNERQRKQPV
ARF2 727-859 (Arabidopsis thaliana, UniProt Q94JM3); relative to: out of 4 tests: 0
ARF8 699-811 (Arabidopsis thaliana, UniProt Q9FGV1); relative to: out of 4 tests: 4
IAA27 (Arabidopsis thaliana, UniProt Q9ZSY8); relative to: out of 4 tests: 2
IAA18 (Arabidopsis thaliana, UniProt O24408); relative to: out of 4 tests: 1
ARF14 497-605 (Arabidopsis thaliana, UniProt Q9LQE8); relative to: out of 4 tests: 0
ARF5 788-902 (Arabidopsis thaliana, UniProt P93024); relative to: out of 4 tests: 4
IAA26 (Arabidopsis thaliana, UniProt Q8LAL2); relative to: out of 2 tests: 0

Block 2 — method: RNA Bind-n-Seq; form: RNA; matrix: in vitro; tested at: not given; setting: 4-mer, random 30-nt RNA, single round; added: RocA, ADP, phosphate; relative to: input library; direction: higher = stronger binding; endpoint: 4-mer enrichment
Target: Eukaryotic initiation factor 4A-I (EIF4A1, Homo sapiens, UniProt P60842, residues 1-406, full length assumed)
Sequence of UniProt P60842 (whole entry, looked up): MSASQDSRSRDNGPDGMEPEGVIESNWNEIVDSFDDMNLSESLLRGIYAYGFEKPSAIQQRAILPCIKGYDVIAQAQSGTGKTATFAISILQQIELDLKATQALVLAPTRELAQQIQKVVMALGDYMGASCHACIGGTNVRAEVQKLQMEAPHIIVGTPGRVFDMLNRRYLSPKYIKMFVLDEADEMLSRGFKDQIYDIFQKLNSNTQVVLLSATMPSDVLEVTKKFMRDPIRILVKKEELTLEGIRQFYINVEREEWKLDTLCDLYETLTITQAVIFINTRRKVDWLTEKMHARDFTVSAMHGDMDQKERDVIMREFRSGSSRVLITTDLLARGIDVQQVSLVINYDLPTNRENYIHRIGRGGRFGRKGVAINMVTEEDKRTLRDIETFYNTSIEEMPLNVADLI
GUCU: 0.702 fold
UCAC: 0.566 fold
AAUA: 1.07 fold
AGGA: 2.02 fold
GAGU: 3.78 fold
UGUA: 0.947 fold
CACG: 0.695 fold
GCGU: 0.916 fold

Block 3 — method: protein binding microarray; form: double-stranded DNA, one strand shown; matrix: in vitro; tested at: not given; relative to: not given; direction: higher = stronger binding; endpoint: E-score
Target: Histone acetyltransferase KAT6A, winged helix 2, GST fusion (KAT6A, Homo sapiens, UniProt Q92794, residues 85-181)
Setting: 8-mer, flanks averaged, mean of 2 arrays, mostly near background
Target sequence (chain): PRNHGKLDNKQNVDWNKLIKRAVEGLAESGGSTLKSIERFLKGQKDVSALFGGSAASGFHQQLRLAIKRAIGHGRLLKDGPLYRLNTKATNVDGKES
AACTCCTC: -0.175
GCCCGTCC: -0.0718
GGCACAGA: -0.0601
GAACAATC: 0.0183
CGTGTTAG: -0.0872
CGCTCGGA: 0.0822
GGGTTACC: -0.14
CACGACCC: 0.00679

Single results of other studies
Starting sequence: viral docking peptide; KKAKRRLFTISDS; partner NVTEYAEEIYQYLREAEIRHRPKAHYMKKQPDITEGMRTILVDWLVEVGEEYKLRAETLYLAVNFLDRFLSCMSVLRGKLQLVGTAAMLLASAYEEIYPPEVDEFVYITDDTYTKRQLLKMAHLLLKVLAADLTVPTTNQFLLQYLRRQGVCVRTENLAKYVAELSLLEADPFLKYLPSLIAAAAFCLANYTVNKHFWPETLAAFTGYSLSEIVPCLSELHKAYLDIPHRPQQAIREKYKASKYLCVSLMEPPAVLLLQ
F8A — normalised enrichment score (CCNA1, cyclin fold, Cln2 fusion (human); yeast growth competition, sequencing; yeast; weak parent motif; relative to: not given, higher = stronger binding): 0.369

Repeated from above (block 3):
CGTGTTAG: -0.0872
GGGTTACC: -0.14
